Published values of several laboratories.
“And” joins repeats or separate records; there may be more than shown.
RPS6KA3: Ribosomal protein S6 kinase alpha-3 (RPS6KA3, Homo sapiens, UniProt P51812)

SMILES | target | assay | system | setting | how to read | measurement | value
Cc1ccc(C)c(-c2ccc3nc(NC(=O)C4CCCCC4)nn3c2)c1 | RPS6KA3 | enzyme activity, Dundee kinase panel |  | 10 µM |  | remaining activity | 62%
O=C(Cc1ccc(OCc2ccccc2)cc1)NC1(C(=O)O)CCN(C(=O)c2ccc(-c3cccc(Cl)c3)cc2)CC1 | RPS6KA3 | enzyme activity, inhibitor |  | 10 µM |  | activity vs control | 112%
Cc1cccc(O[C@H]2CCC[C@@H](C(C)CNCc3ccncc3)C2)c1 (relative stereo) | RPS6KA3 | enzyme activity, inhibitor |  | 1 µM |  | inhibition | -3%
O=C=[N][Ru-4]123([n]4c5ccc(O)cc5c5c6c(c7cc(F)c[n+]1c7c54)C(=O)NC6=O)[S+]1CC[S+]2CC[S+]3CC1 (stereo not drawn) | RPS6KA3 | enzyme activity |  | 100 nM, human enzyme, together with: 10 µM ATP | reference: untreated | remaining activity | 21%
C=CC(=O)N1Cc2nc(-c3cc(-c4cc(Cl)cnc4Cl)c(F)cc3F)n(-c3ccncn3)c2C1 | RPS6KA3 | cell-free assay, inhibitor |  | 1 µM |  | inhibition | 0.6%
O=c1c(-c2ccc(Cl)c(CN3CCOCC3)c2)coc2cc(O)ccc12 | RPS6KA3 | enzyme activity, inhibitor |  | 1 µM |  | remaining activity | 101%
C=CC(=O)Nc1cc(-c2nn(C3CCN(CCNC(=O)[C@H](C)CCC45CC6CC(CC(C6)C4)C5)CC3)c3ncnc(N)c23)ccc1Oc1ccccc1 | Ribosomal protein S6 kinase alpha-3, C-terminal kinase domain (RPS6KA3, Homo sapiens, UniProt P51812) | inhibitor, KiNativ profiling | biochemical | 2 µM |  | inhibition | -0.2%
NC(=O)[C@@H](O)C[C@H]1CCc2sc3ncnc(O[C@H]4CC[C@H](N5CCOCC5)CC4)c3c21 | RPS6KA3 | enzyme activity, inhibitor |  | 10 µM |  | inhibition | 24%
C=CC(=O)Nc1cccc(-c2cnc3[nH]cc(C(=O)NC(C)(C)C)c3n2)c1 | RPS6KA3 | kinase activity |  | 0.1 µM |  | inhibition | 23%
C#CCOC(=O)[C@]1(C)C=C(C(=O)OC(C)(C)C)C(=O)CC1 | RPS6KA3 | kinase activity, RSK sensor |  |  |  | initial slope | 849 and 655 and 765
COc1c(OCCCN2CCOCC2)ccc2c1N=C(NC(=O)c1cnc(N)nc1)N1CCN=C21 | RPS6KA3 | kinase activity, inhibitor |  | 1 µM | reference: untreated control | remaining activity | 121%
CNC(=O)C[C@H](Cc1ccc(C#N)cc1)NC(=O)c1cc(-c2ccc(CN[C@H](C)c3ccc(C)cc3)o2)ccc1Cl | RPS6KA3 | enzyme activity, inhibitor |  | 1 µM |  | activity vs control | 102%
COc1ccc(C(=O)/C=C/c2ccccc2-c2c[nH]c3ccc(C#N)cc23)c(O)c1 | RPS6KA3 | enzyme activity, inhibitor |  | 20 µM |  | inhibition | 6%
CN1CCN(Cc2ccc(-c3ccc(CO[C@H]4CCC[C@@H]4NC(=O)c4cc(-c5cnn(C)c5)cnc4N)cc3)cc2)CC1 | RPS6KA3 | enzyme activity, inhibitor |  | 0.1 µM |  | inhibition | 3%
Cc1cccc(-c2ccc3nc(NC(=O)C4CCCO4)nn3c2)c1 (stereo not drawn) | RPS6KA3 | enzyme activity, Dundee kinase panel |  | 10 µM |  | remaining activity | 66%

For quick reference, copied from above:
SMILES | target | assay | system | setting | how to read | measurement | value
C=CC(=O)Nc1cccc(-c2cnc3[nH]cc(C(=O)NC(C)(C)C)c3n2)c1 | RPS6KA3 | kinase activity |  | 0.1 µM |  | inhibition | 23%
